Measurements from different studies.
Every numbered part comes from another study and shows a few of its results, in no order. Substitutions count along the parent as printed.

Sample 1 — method: RNA Bind-n-Seq; molecule type: RNA; medium: in vitro; concentration: 100 nM; relative to: input RNA pool; direction: higher = stronger binding; measurement: bound/input enrichment
Target: RING finger protein unkempt homolog, zinc fingers 1-6, SBP tag (UNK, Homo sapiens, UniProt Q9C0B0, residues 30-357)
Sequence of UniProt Q9C0B0 (30-357, looked up): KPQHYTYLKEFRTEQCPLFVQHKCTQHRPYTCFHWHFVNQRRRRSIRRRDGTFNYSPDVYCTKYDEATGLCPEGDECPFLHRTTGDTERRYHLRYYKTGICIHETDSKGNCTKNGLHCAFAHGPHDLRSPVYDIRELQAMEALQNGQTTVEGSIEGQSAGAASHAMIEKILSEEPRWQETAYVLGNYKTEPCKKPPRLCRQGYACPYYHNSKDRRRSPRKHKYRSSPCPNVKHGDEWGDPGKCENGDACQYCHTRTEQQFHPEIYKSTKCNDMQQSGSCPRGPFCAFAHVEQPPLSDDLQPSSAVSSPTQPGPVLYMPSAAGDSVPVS
Setting: RNA with constant flanks, vertebrate orthologous sites, ends assumed
Shared flanks, not repeated: GGGAGUUCUACAGUCCGACGAUC … CAACAGAGGAUUGAGCAUCA
AGUAUCCCAGUUGUACCAUGUUGAGUUGGCAUUGUACAGAAAUUAACAGCCAUAUUGGUCUAGAAACGUUAAAUUUAAUUUUUUCCCAUUUGUACAGGGGUAACGCACUGUAUUAAAUAU: 1.13 ratio
AGCUUCUGGCGACAUUUGGCCUGGCCUUUCAGCGUAUGAUAACAGUCCAAGGUCACCCCAUAGUCCUUCUAUUGCCACCCCACCUAGUCAGAGCUCAUCUUGCUCUGAUGCCCCUCUGCU: 0.728 ratio
AAUGGCUUUUGCUUCAUGAAGAAGAGUAAAAAACAGUCCCCUCAGUUAAAAAUGCCUAAAUAGCUAUUUUAAAAAUCAGGAUGUUUAAAUUUUGUAAAUCACCUGAUGUCACUACACACC: 0.692 ratio
UGUGAGUAGUGGAGACUGGCCUGCAACAAGGAGCAAGUCAAGAAAUGUCCAGUAAAACUGCUGUCCUCUGCACUAUCGUUAACCUGCUGUCUCACUUUUCAUGUAGAUGUAAAAUACUGA: 0.292 ratio
CAACGCCAUGGUGGAAGGCUCCGAGCUCAAGAAGGUCCGGUCCAACUCCAGGGUGUACCACCGCUACUUCCUCCUGGAUGCUGACAUGCAGUCUCUGCGCUGGGAGCCUUCCAAAAAGGA: 0.275 ratio
UUGUUUUUGUUUUGCACAUGACAGUGUGUGUAUUGAUCUGAGGAAGGAGGAGGGGCAUUGGCGCAGUUGGCCUCCAGUGCCCCCCACCCUCAACACCCCACCUGGUAUCUUUGCCACGUU: 0.162 ratio
UUUAAAUCUCUUCUCCCCUGUCCUGAUUUUAAAAGCCCCGCUUUUUUUAUUUUCUUUUUUUAGGCAUAUGUAGUAAUAUUAGAAACAUUUAAUUUGGGAAACUUUGAUUCUUAAAAGCGA: 0.836 ratio
CACGUCUGGUGAUAUUUGGCCUGGCCUUUCAGCUUAUGAUAAUAGUCCCAGAUCACCCCAUAGUCCUUCACCAAUUGCUACACCACCCAGCCAGAGUUCAUCUUGCUCUGAUGCCCCCAU: 1.16 ratio
GGUAGAUUUUGUAAAACAGGAGCCCCAUAGGCUGUUUGAGCUUUGCUUUUUAUAUUUAAAUAGGAUACUUUUAUAUGAUGGGUGCUUUGAGUGUGACUGCAGCGGACUCAUUUCAGAGGU: 1.29 ratio
GUGACUUUGGAAGUCCGCAGGGUGUCAUUGCAGAUACUUUUUAGCUCCAGGCCCGGUGGCUAGGUUGGUUCUCUCCUUUCCAAUCGGAGACCUCUGCCGCAAACAUGCUCCGCCAGAUCC: 0.368 ratio
GCACAUGCCGCUGUCACCAAAAUCAGACUGCCAUAUUUCAAAUUUCAUCCAGAAUCGUCGUAGUGUUUCCUAUUCCCUACGCUUCCACUUUUGAUGAUGAAGUAUCCUACGUUCUCCUUC: 0.731 ratio

Sample 2 — method: protein binding microarray; molecule type: double-stranded DNA, one strand shown; medium: in vitro; concentration: not given; relative to: not given; direction: higher = stronger binding; measurement: E-score
Target: Histone acetyltransferase KAT6A, winged helix 2, GST fusion (KAT6A, Homo sapiens, UniProt Q92794, residues 85-181)
Setting: 8-mer, flanks averaged, mean of 2 arrays, mostly near background
Construct (chain): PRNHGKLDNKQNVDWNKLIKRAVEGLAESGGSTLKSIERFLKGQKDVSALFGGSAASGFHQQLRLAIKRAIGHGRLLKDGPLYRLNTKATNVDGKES
AAAGCCCG: -0.066
GTAGCTAA: -0.187
CTGCCAGC: 0.181
GCGAGACA: 0.00228
CGCTCTAC: -0.00234
AGTGCGAT: -0.0341
AGGAGGGC: -0.0091
TCATCAAA: 0.0344
CGAGCATC: 0.0108
AGTCAGAG: 0.0339
AGGCCGGG: 0.182
GTAGGAGA: -0.206
GCATCAAC: 0.118
AGTTTCAC: 0.0823
CAGAAAAG: 0.0245
ACGCATTG: -0.0501
TCAAGGCA: 0.0106
CGTCTGAA: 0.044
CAATTGCG: 0.00541

Sample 3 — target: DBP, bZIP domain (human); method: DHFR protein complementation; medium: yeast; relative to: wild-type JUN-FOS pair; direction: higher = stronger binding; measurement: binding fitness
Setting: single substitutions, most at no-binding floor
Parent: JUN, bZIP domain (human); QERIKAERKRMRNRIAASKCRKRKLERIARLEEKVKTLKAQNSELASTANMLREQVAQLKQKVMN; partner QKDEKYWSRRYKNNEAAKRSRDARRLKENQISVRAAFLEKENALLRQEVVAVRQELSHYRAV
L31W: -1.49 natural log
R53A: -1.4 natural log
A57R: -1.49 natural log
A49G: -1.47 natural log
S43N: -1.57 natural log
L52C: -1.46 natural log
K39S: -1.41 natural log
V35P: -1.36 natural log
A49R: -1.44 natural log
L38V: -1.48 natural log
E44P: -1.51 natural log
E44I: -0.889 natural log
L38E: -1.25 natural log
R53F: -1.41 natural log
R53K: -1.54 natural log
V35I: -1.54 natural log
V35D: -1.49 natural log
E32C: -1.48 natural log
Q55N: -1.53 natural log
I28N: -1.47 natural log
K36G: -1.38 natural log
K36E: -1.53 natural log
A40G: -1.44 natural log
E32R: -1.34 natural log
N42K: -1.5 natural log

Sample 4 — method: RNA Bind-n-Seq; molecule type: RNA; medium: in vitro; concentration: 365 nM; relative to: no-protein control; direction: higher = stronger binding; measurement: RBNS enrichment (R)
Target: RNA binding protein fox-1 homolog 2, RRM domain, GST-SBP tag (RBFOX2, Homo sapiens, UniProt O43251-10, residues 100-194)
Setting: natural RNA segment, single round, ends assumed
Shared flanks, not repeated: GGGAGUUCUACAGUCCGACGAUC … UGGAAUUCUCGGGUGCCAA
Target sequence (chain): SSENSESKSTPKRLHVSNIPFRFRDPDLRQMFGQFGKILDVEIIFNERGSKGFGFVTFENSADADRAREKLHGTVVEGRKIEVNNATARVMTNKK
AAAAGAAAAGCAAGUUUUAUAUAUAUACAUAUAUAUAUAAAGAUCUACAAUUAAAAGAAUGUUUUGAUAAUCCAGGGGCUGGUUAGUGAGCCCGCUGGCCUCACUGGGGU: 2.53
AGGAGCGGCCCUCAAGAUCUCUUUGCCGAGUUUGGGAGCCAUGAGCAAGUCCUUGGCUCCAUACUUCCCUCUAAUGUGAAGGGGAGGGGUCUGCCCUUUCCCUCCUUGGG: 0.378
GAUUGACAAGGAUAAGUCAGUUGUUUGUAAACUCUAGGUAGCAGAUGAGAAAUAAUUCACUUAAUAUCAGAAAUAUUUUCCAAACACUUUCCUUUAUUUUUUCUUCUGAA: 0.356
AAAAGGUGGUUAAAAUUGCCUUUAAUUGCCCAGUAGACUAAUUCCACAGUCAGAACAUGCAAACUUUUUUGAAGAAAUUACUUGAAUAAGUAGUUUUCAUGUUUUCAAUA: 0.259
CAGGAGGUGAGCAUAUUCUCUUGGUGCAGCUCCCAGCUUCAGACCUGCUGAGGGACCCUUCAACUGGCCAGAGCCUGGAUCAAUUUCAUGUUGAUCAGUCAGAGGAACUG: 0.404
ACUCUUGCAGGCUAUAUAUGUGAAGAAUAGUUGUGAUGUAGAUGGAAAGAAAAUGUAUUAUUGUGUGUAUCAUUUGUGUGCUUUCAUAGCAAAAAAUGUGUUUCAGUUGU: 1.46
UAUGGCCUGAGCACAGCUGAAAUCUAGCAGAGUUUAACUCUUCUGCCUCCAUGUCUGUCACUUAUAAUUCAGGUUCUGCUGUUGGCUUCAGAACAUGAGCAGAAGAAUCG: 0.408
GCUACUACUAUGUUAUGAGAGUCAAAAAUAACUCCUUGUGUUUGCUUAAUUUAUUGUUUAACACCCCCUAACUGCCGAAACCAAAGUGAUACGGAGUCGUCUUGUCUGCA: 12.7
GUCUCUGUGGUUCUGCACAGAUUUUGGAAGGUCUUCACUACUCUUGGAAACAAACCCAUGAAUGAAGAAGAAACUCUUAAAAUGGUUCUGUCUGCACUGAUUCAAAGAGG: 0.872
UAUUAUUCCUUAAGAACUCUGUGUUAUAUUACCAUGGAACGCCUAAUAAAGCAAAAUGUGGUUGUUUCAGGGGUGUGUCUGUAUUGAGAUGUUCGGGAGGCGGCUGCUUG: 0.726
UAAUUUUUGGGUUGGGGAGCCAGCUUGGGGUGGGGAAUUUUCACCUGGGCCUCCGCUCUUUAACUAUAUAAACAUUUAUCUGUAUAUCUAUGUCCCUGUCUGGGGGGCAG: 0.577
AAUUCCAUCUCUAAUCUUGGAUAAUACUGGUUGGUUAACAAUAAAGUGACAAAAGCUCCCGCCUUGGAGGUCCGCUGUUGUUAUUUAACGUGGUUUCGCACGUAGCUCUU: 0.587

For quick reference, copied from above (sample 3):
K39S: -1.41 natural log
E32R: -1.34 natural log
R53F: -1.41 natural log
V35I: -1.54 natural log
N42K: -1.5 natural log
L38E: -1.25 natural log
